Experimental data pooled from the literature.
Protocols differ between the studies behind these lines. Values joined by “and” are separate records of one study, mostly repeats; a detail may differ. Numbers after ± are the reported error.
TDP1: Tyrosyl-DNA phosphodiesterase 1 (TDP1, Homo sapiens, UniProt Q9NUW8)
UniProt Q9NUW8, sequence (whole entry, looked up): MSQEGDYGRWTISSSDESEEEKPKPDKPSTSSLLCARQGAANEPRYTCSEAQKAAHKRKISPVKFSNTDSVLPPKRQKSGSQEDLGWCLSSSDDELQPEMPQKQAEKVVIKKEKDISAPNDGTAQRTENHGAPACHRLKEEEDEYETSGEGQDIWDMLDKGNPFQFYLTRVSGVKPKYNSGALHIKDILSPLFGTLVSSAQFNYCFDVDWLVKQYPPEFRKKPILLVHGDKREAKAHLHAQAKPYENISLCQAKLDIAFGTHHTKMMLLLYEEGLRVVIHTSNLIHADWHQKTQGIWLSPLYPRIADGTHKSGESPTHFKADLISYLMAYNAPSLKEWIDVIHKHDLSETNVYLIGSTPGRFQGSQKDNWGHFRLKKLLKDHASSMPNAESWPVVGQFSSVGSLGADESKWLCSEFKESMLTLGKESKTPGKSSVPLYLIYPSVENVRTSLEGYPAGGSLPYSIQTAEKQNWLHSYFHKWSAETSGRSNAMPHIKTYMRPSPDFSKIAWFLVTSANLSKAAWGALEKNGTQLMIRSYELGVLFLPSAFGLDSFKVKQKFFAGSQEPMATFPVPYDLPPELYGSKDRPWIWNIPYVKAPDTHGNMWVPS

SMILES	target or system	test	system	conditions	scale	quantity	value
COCC1CN(C2CCN(c3cc(OC)c(Nc4ncc(Br)c(Nc5ccc6c(c5P(C)(C)=O)OCCO6)n4)cc3C)CC2)C1	–	RECIST 1.1	advanced EGFR-mutant NSCLC patients	240 mg once daily	–	progressive disease	100%
COc1cc(O)ccc1CCC(c1ccc(O)cc1)c1cc2c(c(C)c1O)OC(c1ccc(O)cc1)CC2 (mixture of isomers)	–	item: arachidonic acid	human whole blood	3 µM, together with: Escherichia coli	–	amount	340000 ± 54800 pg/mL blood
O=C(O)c1ccc(Nc2c(-c3ccccc3)nc3ccc(CON=Cc4cc(Br)c5c(c4)CCO5)cn23)cc1	TDP1	enzyme activity, inhibitor	–	100 µM, unpurified compound	–	inhibition	45.6%
NC[C@@H](C(=O)Nc1ccc(-c2cn[nH]c2)cc1)c1ccccc1	–	tonometry	Macaca cyclopis, ocular normotensive	ocular, 0.1%, 48 h	–	IOP	17.1 mmHg
COc1cc(C=CC(=O)Nc2ccc(-c3ccc(NC(=O)C=Cc4ccc(O)c(OC)c4)cc3)cc2)ccc1O	–	carrageenan paw oedema	albino rat	oral, 50 mg/kg, 3 h	–	inhibition	27.2%
O=C(OCc1cccc(O)c1O)c1ccc(O)c(CO)c1	–	–	C57BL/6J mice, wild type	dose not given, day 0, aneurysm hypertension model, together with: angiotensin II 0.8 mg/kg/d for 14 d	–	body weight	32.1 ± 2.1 g
Cc1cccc(C)c1CNc1cc(C(=O)N2CCC2)cn2c(C)c(C)nc12	–	esophageal lesions	rat reflux esophagitis model	oral, 0.25 mg/kg	–	inhibition	16.3%
Cc1cnc2nc1Nc1cccc(c1)COC/C=C/COCc1cc(ccc1OCCN1CCOCC1)N2	–	–	BALB/c mice rhEPO-induced polycythemia	75 mg/kg	–	reticulocytes	12.5% and 12.3% and 12.1% and 11.9% and 13.5%
CC[C@H](C)[C@@H](C(=O)N[C@@H](CC(C)C)C(=O)N[C@@H](CO)C(=O)N[C@@H](CO)C(=O)N[C@H](C(=O)N[C@@H](CCC(=O)O)C(=O)N[C@H](C(=O)NCC(=O)N[C@@H](CO)C(=O)NCC(=O)N[C@H](C(=O)N1C[C@H](O)C[C@H]1C(N)=O)[C@@H](C)O)C(C)C)[C@@H](C)O)N(C)C(=O)[C@H](C)NC(=O)CN(C)C(=O)[C@H](Cc1ccccc1)NC(=O)[C@H](CO)NC(=O)[C@H](CO)NC(=O)[C@H](CCCNC(=N)N)NC(=O)[C@H](CCC(N)=O)NC(=O)[C@H](CC(C)C)NC(=O)[C@H](Cc1ccccc1)NC(=O)[C@H](Cc1c[nH]cn1)NC(=O)[C@H](C)NC(=O)[C@H](CC(C)C)NC(=O)[C@H](CCCNC(=N)N)NC(=O)[C@H](CCC(N)=O)NC(=O)[C@@H](NC(=O)[C@H](C)NC(=O)[C@@H]1CSSC[C@H](NC(=O)[C@H](CCCNC(=N)N)NC(=O)CC[C@H](NC(=O)CCCCCCCCCCCCCCCCCCC(=O)O)C(=O)O)C(=O)N[C@@H](CC(N)=O)C(=O)N[C@@H]([C@@H](C)O)C(=O)N[C@@H](C)C(=O)N[C@@H]([C@@H](C)O)C(=O)N1)[C@@H](C)O	–	–	male Sprague-Dawley rats	subcutaneous, 30 nmol/kg single dose, 24 h	baseline: vehicle	food intake	77.3 ± 3.8%
CC(C)(C)NCC(SS(=O)(=O)O)c1ccccc1 (centres unmarked)	–	–	mouse infected with Schistosoma mansoni	600 mg/kg, day 7 post-infection dosing once, perfusion day 52 post-infection	–	spleen weight	0.97 g and 0.48 g and 0.96 g and 0.53 g
CC(C)C[C@H](NC(=O)CNC(=O)[C@H](CCC(N)=O)NC(=O)[C@H](CC(C)C)NC(=O)[C@H](CC(C)C)NC(=O)[C@H](CCCNC(=N)N)NC(=O)[C@H](CCC(N)=O)NC(=O)[C@H](CC(C)C)NC(=O)[C@H](CCCNC(=N)N)NC(=O)[C@H](C)NC(=O)CNC(=O)[C@H](CCC(=O)O)NC(=O)[C@H](CCCNC(=N)N)NC(=O)[C@H](CC(C)C)NC(=O)[C@H](CCCNC(=N)N)NC(=O)[C@H](CO)NC(=O)[C@H](CC(C)C)NC(=O)[C@H](CCC(=O)O)NC(=O)[C@H](CO)NC(=O)[C@@H](NC(=O)[C@H](Cc1ccccc1)NC(=O)[C@@H](NC(=O)CNC(=O)[C@H](CC(=O)O)NC(=O)C(C)(C)NC(=O)[C@@H](N)Cc1c[nH]cn1)[C@@H](C)O)[C@@H](C)O)C(=O)N[C@@H](CC(C)C)C(=O)N[C@@H](CCC(N)=O)C(=O)NCC(=O)N[C@@H](CC(C)C)C(=O)N[C@H](C(=O)NCC(=O)N[C@@H](CCCCNC(=O)COCCOCCNC(=O)COCCOCCNC(=O)CC[C@H](NC(=O)CCCCCCCCCCCCCCCCC(=O)O)C(=O)O)C(N)=O)C(C)C	–	–	DIO C57BL/6J mice	sc, 300 nmol/kg twice daily, 8 days, not significant	–	body weight lowering	2.5%
CCC(=O)N[C@@H](C)C(=O)OCC(=O)N[C@@H](C)C(=O)O	–	–	water	pH 2, 50 °C	–	side-chain scission rate constant	0.004 h⁻¹
COc1ccccc1-c1ccncc1C(=O)Nc1nnc(OCc2ccc(Cl)cc2)s1	–	–	Brca1 Δ11/Δ11 Polq-/- MEF, Mus musculus	10 µM	baseline: 0 µM	colony survival	81.3%
CC(=O)[O-].O.O.O.O.[Mn+2].[O-]c1ccc(Br)cc1C=NCCN1CCOCC1	–	hydroxyl radical scavenging	–	80 µM	–	inhibition	14.7%
CC(=O)N1N=C(Nc2ccc(-c3ccc(NC4=NN(C(C)=O)C(c5ccccc5)C4)cc3)cc2)CC1c1ccccc1 (centres unmarked)	–	carrageenan paw oedema	albino rat	oral, 50 mg/kg, 3 h	baseline: vehicle	inhibition	23.3%
COC1CN([C@H]2CC[C@H]([C@@]3(C)Oc4c(Cl)cc(C(=O)NCc5c(SC)cc(C)[nH]c5=O)c(C)c4O3)CC2)C1	–	RNA-seq, item: IL15 mouse homolog	mouse, HT-1376 xenograft, whole blood	dose not given	baseline: vehicle	log2 fold change	0.374
CC(C)=CCc1cc(C(=O)/C=C/c2ccc(O)cc2)c(O)cc1O	–	phase I metabolism	rat liver microsomes	–	–	Vmax	229 ± 28.3 pmol/min/mg
CN1CCC[C@]1(C)/C=C/S(=O)(=O)NC(=O)Nc1c2c(cc3c1CCC3)CCC2	–	–	human, whole blood ex vivo	400 mg single dose, 6 h, single ascending dose, together with: LPS and ATP	–	IL-1β inhibition	99.5%
OCC1OC(n2cnc3c(NCc4ccc(Br)s4)ncnc32)C(O)C1O (centres unmarked)	–	Seahorse	slices, C57BL/6 mouse brain	acute exposure	–	basal respiration	no effect
O=C(O)CN1CCN(CC(=O)O)CCN(CC(=O)NCCOCCOCCOCCOCCOCCOCCOCCOCCOCCOCCOCCNC(=O)CCCC(=O)Nc2ccc(-c3nnc(-c4ccccn4)nn3)nc2)CCN(CC(=O)O)CC1	–	–	DPBS	37 °C, together with: TCO-PEG4	–	second order rate constant	73000 ± 5500 M⁻¹ s⁻¹
COc1c(Cl)cccc1Nc1c(-c2ccncc2C#C[C@@]2(C)CCCN2C(=O)/C=C/CN(C)C)[nH]c2c1C(=O)NCC2	–	–	female NOD/SCID mouse, PDX	25 mg/kg once daily, 21 days, HER2 YVMA	–	tumour regression	57.9%
O=C(C=Cc1ccccc1)Nc1ccc(-c2ccc(NC(=O)C=Cc3ccccc3)cc2)cc1	–	carrageenan paw oedema	albino rat	oral, 50 mg/kg, 3 h	–	inhibition	16.2%
CCCCCc1ccc(S(=O)(=O)N2CC2C(=O)OC)cc1 (centres unmarked)	–	–	mouse, Lewis lung carcinoma	intraperitoneal, 15 mg/kg, 16 doses, day 10	–	tumour growth inhibition	45%
COc1ccc(C(=O)CCc2cc(C(CCc3ccc(O)cc3OC)c3ccc(O)cc3)c(O)cc2OC)cc1 (racemic)	–	–	human blood	1 µM, together with: A23187	–	15-HETE level	253 ± 69 pg/mL
O=C(O)c1ccc(Nc2c(-c3ccccc3)nc3ccc(CON=Cc4ccc(S(=O)(=O)c5ccc(Cl)cc5)cc4)cn23)cc1 (mixture of isomers)	TDP1	enzyme activity, inhibitor	–	100 µM, unpurified compound	–	inhibition	65.4%
COCCOCCOCCNC(=O)Cc1cc(CC(=O)N[C@H]2C[C@H]3C(=O)Nc4cc(OCCOCCOCCOC)cc(n4)C(=O)N4CCC[C@H]4C(=O)Nc4cc(OCCOCCOCCOC)cc(n4)C(=O)N4CCC[C@H]4C(=O)Nc4cc(OCCOCCOCCOC)cc(n4)C(=O)N3C2)cc(CC(=O)N[C@H]2C[C@H]3C(=O)Nc4cc(OCCOCCOCCOC)cc(n4)C(=O)N4CCC[C@H]4C(=O)Nc4cc(OCCOCCOCCOC)cc(n4)C(=O)N4CCC[C@H]4C(=O)Nc4cc(OCCOCCOCCOC)cc(n4)C(=O)N3C2)c1	–	anion binding, ITC	water/acetonitrile 95 vol% (98.2 mol%)	298 K, together with: sodium iodide	–	TΔS	3.68 ± 0.0956 kcal/mol
